{"data": "Measured values of several laboratories", "GLP1R": "Glucagon-like peptide 1 receptor (GLP1R, Homo sapiens, UniProt P43220)", "E3 ubiquitin-protein ligase NEDD4": "E3 ubiquitin-protein ligase NEDD4 (Homo sapiens, UniProt P46934)", "RPA1 N-terminal domain": "Replication protein A 70 kDa DNA-binding subunit, N-terminal domain (RPA1, Homo sapiens, UniProt P27694)", "note": "Protocols differ between the studies behind these lines. “And” joins repeats or separate records; there may be more than shown. ± marks the error that the study gave."}
{"Structure (SMILES)": "Cc1cc(=O)oc2cc(NC(=O)[C@H](Cc3ccc(O)cc3)NC(=O)[C@@H](NC(=O)[C@H](CC(C)C)NC(=O)[C@H](CC(C)C)NC(=O)CCC(=O)O)C(C)C)ccc12", "target": "PSMB5 (Homo sapiens, UniProt P28074)", "assay": "chymotrypsin-like activity, substrate", "conditions": "pH 7.8, 37 °C, together with: oligomeric Aβ(1-42) 1 µM", "quantity": "Km", "result": "20 ± 4.2 µM"}
{"Structure (SMILES)": "CC(C)C[C@H](NC(=O)[C@@H]1CCCN1C(=O)[C@H](CCC(N)=O)NC(=O)CNC(=O)[C@H](CO)NC(=O)[C@H](CCCNC(=N)N)NC(=O)[C@H](Cc1ccccc1)NC(=O)[C@H](CC(N)=O)NC(=O)[C@H](CCCNC(=N)N)NC(=O)[C@@H](NC(=O)c1ccccc1N)C(C)C)C(=O)N[C@@H](CCC(N)=O)C(=O)N[C@@H](CC(N)=O)C(=O)N[C@@H](CCCCN)C(=O)N[C@H](C(=O)N[C@@H](CCC(N)=O)C(=O)NCCNc1ccc([N+](=O)[O-])cc1[N+](=O)[O-])C(C)C", "target": "Mitochondrial intermediate peptidase (MIPEP, Homo sapiens, UniProt Q99797)", "assay": "substrate, FRET peptide hydrolysis", "quantity": "kcat", "result": "0.223 s⁻¹"}
{"Structure (SMILES)": "C[C@H]1N[C@@H](c2c[nH]c3c(=O)[nH]cnc23)[C@H](O)[C@@H]1O", "target": "PNP (Homo sapiens, UniProt P00491)", "assay": "xanthine oxidase coupled", "conditions": "first subunit", "quantity": "binding free energy ΔG", "result": "-10.4 ± 0.04 kcal/mol"}
{"Structure (SMILES)": "CCS(=O)(=O)c1nc(-c2ccc(F)cc2)cc(C(F)F)n1", "target": "GLP1R", "assay": "cAMP accumulation, agonist", "system": "HEK293T overexpressing target", "conditions": "no peptide ligand", "quantity": "Emax", "result": "118 ± 15%"}
{"Structure (SMILES)": "O=C(Nc1cccnc1)C12CC1/C(=N\\O)c1ccccc1O2 (stereo not shown)", "target": "GRM4 (Homo sapiens, UniProt Q14833)", "assay": "positive allosteric modulator, calcium mobilization", "system": "CHO expressing Gqi5", "conditions": "concentration not given, together with: glutamate EC20", "how to read": "reference: (±)-PHCCC", "quantity": "response", "result": "36.6 ± 1.4%"}
{"Structure (SMILES)": "CCOC(=O)/C=C/CNCCCCN1c2ccccc2CCc2ccc(Cl)cc21", "target": "E3 ubiquitin-protein ligase NEDD4", "assay": "inhibitor, Ub-TR-FRET", "conditions": "100 µM, 1 h preincubation, HECT domain, together with: ATP 2 mM", "how to read": "higher = more ubiquitination", "quantity": "ubiquitination TR-FRET signal AUC", "result": "8150 a.u. and 9730 a.u. and 10100 a.u. and 12600 a.u. and 9320 a.u. and 11000 a.u."}
{"Structure (SMILES)": "Cc1ccc(S(=O)(=O)Oc2ccc(/C=C/c3c[nH]c4ccc(C#N)cc34)cc2)cc1", "target": "Amyloid-beta precursor protein, Aβ1-40 (APP, Homo sapiens, UniProt P05067)", "assay": "Aβ40 aggregation, thioflavin T fluorescence", "conditions": "25 µM", "quantity": "inhibition", "result": "23%"}
{"Structure (SMILES)": "CC(C)(C(=O)/C=C/c1ccc(O)c(OC(F)(F)F)c1)C(=O)/C=C/c1ccc(O)c(OC(F)(F)F)c1", "target": "APP (Homo sapiens, UniProt P05067)", "assay": "SDS-PAGE western blot, refers to: Aβ1-42 species 75-200 kDa", "conditions": "30 µM, 24 h, 37 °C, together with: Aβ 10 µM", "how to read": "reference: DMSO control", "quantity": "Aβ band density", "result": "524 ± 277%"}
{"Structure (SMILES)": "C/C=C/Cn1c(Cc2cc(OC)c(OC)c(OC)c2)nc2c(N)ncnc21", "target": "Heat shock protein HSP 90-beta, N-terminal domain (HSP90AB1, Homo sapiens, UniProt P08238)", "assay": "isothermal titration calorimetry, one-site model", "conditions": "concentration not given, 298 K", "quantity": "binding stoichiometry", "result": "0.79 ± 0.01"}
{"Structure (SMILES)": "Cc1nc(-c2cccc(CO)c2)sc1COc1ccc(CCC(=O)O)cc1", "target": "Vitamin D3 receptor (VDR, Homo sapiens, UniProt P11473)", "assay": "reporter gene, antagonist", "system": "HEK-293T", "conditions": "up to 100 µM, CYP24A1 promoter luciferase, together with: 1,25(OH)2D3 10 nM", "quantity": "IC50", "result": "inactive"}
{"Structure (SMILES)": "O=S(=O)(Cc1ccc(-c2nc(-c3cccnc3)no2)o1)c1ccc(Cl)cc1", "target": "Catenin beta-1, residues 141-305 (CTNNB1, Homo sapiens, UniProt P35222)", "assay": "isothermal titration calorimetry", "conditions": "concentration not given, 25 °C", "quantity": "enthalpy change", "result": "-1.1 kcal/mol"}
{"Structure (SMILES)": "Cc1ccc(NC(=O)c2ccc(C)c(S(=O)(=O)Nc3ccc(Cl)c(Cl)c3)c2)c(C(=O)O)c1", "target": "RPA1 N-terminal domain", "assay": "binding, fluorescence polarisation competition", "conditions": "together with: FITC-ATRIP probe", "quantity": "ligand efficiency", "result": 0.23}
{"Structure (SMILES)": "COc1cc(Cl)ccc1-c1nc(Nc2nc3ccccc3o2)ncc1C#N", "target": "Grm5 (Rattus norvegicus, UniProt P31424)", "assay": "calcium mobilization, negative allosteric modulator", "conditions": "together with: glutamate EC80", "how to read": "reference: glutamate maximum", "quantity": "maximal response", "result": "2 ± 0.2%"}
{"Structure (SMILES)": "Cc1cc(NC(=O)c2cccc(NC(=O)C3=CC(C)(C)CC3=O)c2)ccc1Nc1nccc(-c2cccnc2)n1", "target": "MAPK8 (Homo sapiens, UniProt P45983)", "assay": "kinase activity, inhibitor", "conditions": "133.3 µM, unit not given, together with: 10 mM GSH", "how to read": "reference: DMSO", "quantity": "remaining activity", "result": 0.0265}
{"Structure (SMILES)": "Cc1ccc(NC(=O)c2cc3ccccc3c(N=Nc3cc(S(=O)(=O)O)ccc3O)c2O)c(C)c1", "target": "Bcl-2-related protein A1 (Mus musculus, UniProt Q07440, C113S/P104K)", "assay": "binding, inhibitor, fluorescence polarization competition", "conditions": "100 µM, overnight, 20 °C, together with: FITC-Noxa peptide 375 nM", "how to read": "reference: peptide without protein", "quantity": "Noxa peptide bound", "result": "1.2%"}
{"Structure (SMILES)": "CN(Cc1ccccc1)Cc1cn(CC(C)(C)c2c[nH]c3ccccc23)nn1", "target": "GLP1R", "assay": "cAMP accumulation, positive allosteric modulator, HTRF", "conditions": "0.6 µM, crude reaction product, together with: GLP-1(9-36) at EC20", "how to read": "reference: BETP", "quantity": "Emax", "result": "99.5%"}
{"Structure (SMILES)": "Nc1ncnc2c1c(-c1ccc(C(=O)Nc3cc(OC(F)(F)F)ccn3)cc1)nn2[C@@H]1CCCN(C(=O)C2CC2)C1", "target": "Tyrosine-protein kinase BTK, non-phosphorylated (BTK, Homo sapiens, UniProt Q06187)", "assay": "TR-FRET binding kinetics", "conditions": "37 °C, unphosphorylated protein", "quantity": "koff", "result": "0.000426 ± 4.3e-05 s⁻¹"}
{"Structure (SMILES)": "O=C(O)c1ccnc(C(=O)O)c1Nc1ccccc1[N+](=O)[O-]", "target": "fdhA (Pseudomonas putida, UniProt P46154)", "assay": "inhibitor, spectrophotometric", "conditions": "200 µM, counterscreen", "quantity": "remaining activity", "result": "59%"}
{"Structure (SMILES)": "Nc1ccc([N+](=O)[O-])cc1-c1nc2ccccc2[nH]c1=O", "target": "Protein diaphanous homolog 1, FH2 domain (Diaph1, Mus musculus, UniProt O08808)", "assay": "actin assembly, inhibitor, pyrene-actin polymerization", "quantity": "Hill coefficient", "result": 8.3}
{"Structure (SMILES)": "CC(=O)N1CCN(c2ccc(Nc3ncc4c(n3)N(C)C(=O)N(c3cc(NC(=O)c5cccc(C(F)(F)F)c5)ccc3C)C4)cn2)CC1", "target": "FGFR4/Transcription factor ETV6 (Homo sapiens, UniProt P22455+P41212, V550E)", "assay": "cell proliferation", "system": "Ba/F3 TEL-FGFR4 V550E", "conditions": "72 h", "quantity": "GI50", "result": "247 nM"}
{"Structure (SMILES)": "Nc1nc(SCc2ccc(Cl)cc2)nn1S(=O)(=O)c1cccc([N+](=O)[O-])c1", "target": "Lysophospholipase-like protein 1 (Mus musculus, UniProt Q3UFF7)", "assay": "activator, gel-based ABPP, FP-rhodamine", "system": "HEK293 overexpressing Lysophospholipase-like protein 1", "conditions": "10 µM", "quantity": "activation", "result": "128%"}
{"Structure (SMILES)": "CCOC(=O)/C=C/CNCCN1c2ccccc2CCc2ccc(Cl)cc21", "target": "E3 ubiquitin-protein ligase NEDD4", "assay": "inhibitor, Ub-TR-FRET", "conditions": "11.11 µM, 1 h preincubation, HECT domain, together with: ATP 2 mM", "how to read": "higher = more ubiquitination", "quantity": "ubiquitination TR-FRET signal AUC", "result": "175000 a.u. and 174000 a.u. and 176000 a.u."}
{"Structure (SMILES)": "Cc1ccc(NS(=O)(=O)c2cc(C(=O)Nc3ccccc3C(=O)O)ccc2C)cc1", "target": "RPA1 N-terminal domain", "assay": "binding, fluorescence polarisation competition", "conditions": "together with: FITC-ATRIP probe", "quantity": "ligand efficiency", "result": 0.17}
{"Structure (SMILES)": "CCOC(=O)/C=C/CNCCCN1c2ccccc2CCc2ccccc21", "target": "E3 ubiquitin-protein ligase NEDD4", "assay": "inhibitor, Ub-TR-FRET", "conditions": "0.04572 µM, 1 h preincubation, HECT domain, together with: ATP 2 mM", "how to read": "higher = more ubiquitination", "quantity": "ubiquitination TR-FRET signal AUC", "result": "132000 a.u. and 130000 a.u. and 131000 a.u."}
{"Structure (SMILES)": "NC(=O)c1cn(-c2ccc(F)cc2)c2ccc(CN3CCS(=O)(=O)CC3)cc2c1=O", "target": "Grm2 (Rattus norvegicus, UniProt P31421)", "assay": "calcium mobilization, negative allosteric modulator", "conditions": "30 µM, together with: glutamate 100 µM", "how to read": "reference: glutamate maximum", "quantity": "response", "result": "1.33 ± 0.38%"}
